Experimental data gathered from unrelated publications.
Protocols differ between the studies behind these lines. Numbers after ± are the reported error.
Cell line: human erythrocytes

SMILES	test	conditions	scale	quantity	value
CCCCCCCCCCCC(=O)NCC(=O)N[C@@H](CC(C)C)C(=O)N[C@@H](CC(C)C)C(=O)N[C@@H](CCCCN)C(=O)N[C@@H](CCCNC(=N)N)C(=O)N[C@H](C(=O)N[C@@H](CCCCN)C(=O)N[C@H](C(=O)N[C@@H](CC(C)C)C(=O)N[C@@H](CC(C)C)C(=O)NCCCC[C@H](NC(=O)[C@H](CCCCNC(=O)[C@H](CC(C)C)NC(=O)[C@H](CC(C)C)NC(=O)[C@@H](NC(=O)[C@H](CCCCN)NC(=O)[C@@H](NC(=O)[C@H](CCCNC(=N)N)NC(=O)[C@H](CCCCN)NC(=O)[C@H](CC(C)C)NC(=O)[C@H](CC(C)C)NC(=O)CNC(=O)CCCCCCCCCCC)[C@@H](C)CC)[C@@H](C)O)NC(=O)[C@H](CC(C)C)NC(=O)[C@H](CC(C)C)NC(=O)[C@@H](NC(=O)[C@H](CCCCN)NC(=O)[C@@H](NC(=O)[C@H](CCCNC(=N)N)NC(=O)[C@H](CCCCN)NC(=O)[C@H](CC(C)C)NC(=O)[C@H](CC(C)C)NC(=O)CNC(=O)CCCCCCCCCCC)[C@@H](C)CC)[C@@H](C)O)C(N)=O)[C@@H](C)O)[C@@H](C)CC		1 h, 37 °C, 10% haemolysis		minimum haemolytic concentration	104 µM
CC[C@H](C)[C@H](NC(=O)[C@H](CC(=O)O)NC(=O)[C@H](Cc1ccccc1)NC(=O)[C@H](CC(C)C)NC(=O)CN)C(=O)N[C@H](C(=O)N[C@@H](CCCCN)C(=O)N[C@@H](CCCCN)C(=O)N[C@H](C(=O)N[C@@H](CC(C)C)C(=O)N[C@@H](CCCCN)C(=O)N[C@@H](CC(C)C)C(=O)N[C@@H](CC(C)C)C(=O)N[C@@H](CCCCN)C(N)=O)C(C)C)C(C)C		1 h, 37 °C, hemolysis ≤5%		minimal hemolytic concentration	8 µM
CC[C@H](C)[C@H](NC(=O)[C@H](CCCNC(=N)N)NC(=O)[C@H](CCCCN)NC(=O)[C@H](CC(C)C)NC(=O)[C@H](CC(C)C)NC(=O)CN)C(=O)N[C@@H](CCCCN)C(=O)N[C@H](C(=O)N[C@@H](CC(C)C)C(=O)N[C@@H](CC(C)C)C(=O)NCCCC[C@H](NC(=O)[C@H](CC(C)C)NC(=O)[C@H](CC(C)C)NC(=O)[C@@H](NC(=O)[C@H](CCCCN)NC(=O)[C@@H](NC(=O)[C@H](CCCNC(=N)N)NC(=O)[C@H](CCCCN)NC(=O)[C@H](CC(C)C)NC(=O)[C@H](CC(C)C)NC(=O)CN)[C@@H](C)CC)[C@@H](C)O)C(=O)NCCCC[C@H](NC(=O)[C@H](CCCCNC(=O)[C@H](CC(C)C)NC(=O)[C@H](CC(C)C)NC(=O)[C@@H](NC(=O)[C@H](CCCCN)NC(=O)[C@@H](NC(=O)[C@H](CCCNC(=N)N)NC(=O)[C@H](CCCCN)NC(=O)[C@H](CC(C)C)NC(=O)[C@H](CC(C)C)NC(=O)CN)[C@@H](C)CC)[C@@H](C)O)NC(=O)[C@H](CC(C)C)NC(=O)[C@H](CC(C)C)NC(=O)[C@@H](NC(=O)[C@H](CCCCN)NC(=O)[C@@H](NC(=O)[C@H](CCCNC(=N)N)NC(=O)[C@H](CCCCN)NC(=O)[C@H](CC(C)C)NC(=O)[C@H](CC(C)C)NC(=O)CN)[C@@H](C)CC)[C@@H](C)O)C(N)=O)[C@@H](C)O		1 h, 37 °C, 10% haemolysis		minimum haemolytic concentration	1.31 µM
CC[C@H](C)[C@H](NC(=O)[C@H](Cc1c[nH]c2ccccc12)NC(=O)[C@H](CCCCN)NC(=O)[C@H](CC(C)C)NC(=O)[C@@H](NC(=O)[C@@H](NC(=O)CNC(=O)[C@H](CCCCN)NC(=O)[C@H](Cc1c[nH]cn1)NC(=O)[C@H](CCCCN)NC(=O)[C@H](Cc1c[nH]c2ccccc12)NC(=O)[C@H](C)NC(=O)[C@H](CC(C)C)NC(=O)[C@H](CO)NC(=O)[C@@H](NC(=O)[C@H](Cc1ccc(O)cc1)NC(=O)[C@H](CCCCN)NC(=O)[C@@H](N)CCC(N)=O)C(C)C)[C@@H](C)O)[C@@H](C)CC)C(=O)N[C@@H](CC(N)=O)C(=O)N[C@@H](C)C(N)=O				highest non-haemolytic concentration	> 600 µg/mL
CC(C)C[C@H](NC(=O)[C@H](CCN)NC(=O)[C@H](CCN)NC(=O)[C@H](CC(C)C)NC(=O)[C@H](Cc1c[nH]c2ccccc12)NC(=O)[C@H](CCN)NC(=O)[C@@H](N)CC(C)C)C(N)=O		up to 100 µM, 4 h, 37 °C	reference: Triton X-100	hemolysis	< 10%
CC[C@@H](CC(=O)N[C@@H](CCCNC(=N)N)CC(=O)N[C@H]1CCCC[C@@H]1C(=O)N[C@@H](CC)CC(=O)N[C@@H](CCCNC(=N)N)CC(=O)N[C@H]1CCCC[C@@H]1C(=O)N[C@@H](CC)CC(=O)N[C@@H](CCCNC(=N)N)CC(N)=O)NC(=O)[C@H]1CCCC[C@@H]1NC(=O)C[C@@H](N)Cc1ccc(O)cc1		antifungal MIC, 1 h, 37 °C	reference: melittin	haemolysis	7.5 ± 5.2%
CCCCCCCCCCCC(=O)NCC(=O)N[C@@H](CC(C)C)C(=O)N[C@@H](CC(C)C)C(=O)N[C@@H](CCCCN)C(=O)N[C@@H](CCCNC(=N)N)C(=O)N[C@H](C(=O)N[C@@H](CCCCN)C(=O)N[C@H](C(=O)N[C@@H](CC(C)C)C(=O)N[C@@H](CC(C)C)C(=O)NCCCC[C@H](NC(=O)[C@H](CC(C)C)NC(=O)[C@H](CC(C)C)NC(=O)[C@@H](NC(=O)[C@H](CCCCN)NC(=O)[C@@H](NC(=O)[C@H](CCCNC(=N)N)NC(=O)[C@H](CCCCN)NC(=O)[C@H](CC(C)C)NC(=O)[C@H](CC(C)C)NC(=O)CNC(=O)CCCCCCCCCCC)[C@@H](C)CC)[C@@H](C)O)C(=O)NCCCC[C@H](NC(=O)[C@H](CCCCNC(=O)[C@H](CC(C)C)NC(=O)[C@H](CC(C)C)NC(=O)[C@@H](NC(=O)[C@H](CCCCN)NC(=O)[C@@H](NC(=O)[C@H](CCCNC(=N)N)NC(=O)[C@H](CCCCN)NC(=O)[C@H](CC(C)C)NC(=O)[C@H](CC(C)C)NC(=O)CNC(=O)CCCCCCCCCCC)[C@@H](C)CC)[C@@H](C)O)NC(=O)[C@H](CC(C)C)NC(=O)[C@H](CC(C)C)NC(=O)[C@@H](NC(=O)[C@H](CCCCN)NC(=O)[C@@H](NC(=O)[C@H](CCCNC(=N)N)NC(=O)[C@H](CCCCN)NC(=O)[C@H](CC(C)C)NC(=O)[C@H](CC(C)C)NC(=O)CNC(=O)CCCCCCCCCCC)[C@@H](C)CC)[C@@H](C)O)C(N)=O)[C@@H](C)O)[C@@H](C)CC		1 h, 37 °C, 10% haemolysis		minimum haemolytic concentration	211 µM
CN[C@H](CC(C)C)C(=O)N[C@H]1C(=O)N[C@@H](CC(N)=O)C(=O)N[C@H]2C(=O)N[C@H]3C(=O)N[C@H](C(=O)N[C@H](C(=O)O)c4cc(O)cc(O)c4-c4cc3ccc4O)[C@H](O)c3ccc(c(Cl)c3)Oc3cc2cc(c3O[C@@H]2O[C@H](CO)[C@@H](O)[C@H](O)[C@H]2O[C@H]2C[C@](C)(NCc3ccc(C(=O)OCCCCCCN(Cc4ccccn4)Cc4ccccn4)cc3)[C@H](O)[C@H](C)O2)Oc2ccc(cc2Cl)[C@H]1O		1 h, pH 7.4, 5% suspension		HC50	> 500 µM
CC[C@@H](CC(=O)N[C@@H](CCCNC(=N)N)CC(=O)N[C@H](CC(=O)N[C@@H](CC)CC(=O)N[C@@H](CCCNC(=N)N)CC(=O)N[C@H](CC(=O)N[C@@H](CC)CC(=O)N[C@@H](CCCNC(=N)N)CC(N)=O)[C@@H](C)CC)[C@@H](C)CC)NC(=O)C[C@@H](N)[C@@H](C)CC		antifungal MIC, 1 h, 37 °C	reference: melittin	haemolysis	4.5 ± 3.2%
CC(C)C[C@H](NC(=O)[C@H](C)NC(=O)CNC(=O)[C@@H](NC(=O)[C@@H](NC(=O)[C@H](CCCCN)NC(=O)[C@H](CCCCN)NC(=O)[C@H](CC(C)C)NC(=O)[C@H](CC(C)C)NC(=O)[C@H](CCCCN)NC(=O)[C@H](CC(C)C)NC(=O)[C@H](CC(C)C)NC(=O)[C@@H](N)CCCCN)C(C)C)C(C)C)C(=O)NCC(N)=O		1 h, 37 °C, hemolysis ≤5%		minimal hemolytic concentration	125 µM
CC[C@H](C)[C@H](NC(=O)[C@H](CC(C)C)NC(=O)CNC(=O)[C@H](CCCCN)NC(=O)[C@@H](NC(=O)[C@@H](NC(=O)[C@H](CC(N)=O)NC(=O)[C@H](Cc1c[nH]c2ccccc12)NC(=O)[C@@H](NC(=O)[C@H](CCC(=O)O)NC(=O)CNC(=O)[C@H](Cc1c[nH]c2ccccc12)NC(=O)[C@@H](N)CC(C)C)[C@@H](C)CC)[C@@H](C)O)C(C)C)C(N)=O		up to 200 µg/mL, 1 h, 37 °C		hemolysis	< 50%
CC(=O)N[C@H](CCCCN)C(=O)N[C@H](CC(C)C)C(=O)N[C@H](CCCN)C(=O)N[C@H](CO)C(=O)N[C@H](CC(C)C)C(=O)N[C@H](CC(C)C)C(=O)N[C@H](CCCN)C(=O)N[C@@H](C(=O)N[C@H](CC(C)C)C(=O)N[C@H](CO)C(=O)N[C@H](CCCN)C(=O)N[C@H](C)C(=O)N[C@H](C)C(=O)N[C@H](C)C(=O)N[C@H](C)C(=O)N[C@H](C)C(=O)N[C@H](CC(C)C)C(=O)N[C@H](CCCN)C(=O)N[C@@H](C(=O)N[C@H](CC(C)C)C(=O)N[C@H](CC(C)C)C(=O)N[C@H](CCCN)C(=O)N[C@H](C)C(=O)N[C@H](CC(C)C)C(=O)N[C@H](CO)C(=O)N[C@H](CCCN)C(N)=O)[C@H](C)O)[C@H](C)O	hemoglobin release	18 h, pH 7.4, 37 °C, 50% hemolysis		HC50	0.9 µM
CCCCCC(=O)NCC(=O)N[C@@H](CC(C)C)C(=O)N[C@@H](CC(C)C)C(=O)N[C@@H](CCCCN)C(=O)N[C@@H](CCCNC(=N)N)C(=O)N[C@H](C(=O)N[C@@H](CCCCN)C(=O)N[C@H](C(=O)N[C@@H](CC(C)C)C(=O)N[C@@H](CC(C)C)C(=O)NCCCC[C@H](NC(=O)[C@H](CCCCNC(=O)[C@H](CC(C)C)NC(=O)[C@H](CC(C)C)NC(=O)[C@@H](NC(=O)[C@H](CCCCN)NC(=O)[C@@H](NC(=O)[C@H](CCCNC(=N)N)NC(=O)[C@H](CCCCN)NC(=O)[C@H](CC(C)C)NC(=O)[C@H](CC(C)C)NC(=O)CNC(=O)CCCCC)[C@@H](C)CC)[C@@H](C)O)NC(=O)[C@H](CC(C)C)NC(=O)[C@H](CC(C)C)NC(=O)[C@@H](NC(=O)[C@H](CCCCN)NC(=O)[C@@H](NC(=O)[C@H](CCCNC(=N)N)NC(=O)[C@H](CCCCN)NC(=O)[C@H](CC(C)C)NC(=O)[C@H](CC(C)C)NC(=O)CNC(=O)CCCCC)[C@@H](C)CC)[C@@H](C)O)C(N)=O)[C@@H](C)O)[C@@H](C)CC		1 h, 37 °C, 10% haemolysis		minimum haemolytic concentration	0.71 µM

A few entries again:
SMILES	test	conditions	scale	quantity	value
CN[C@H](CC(C)C)C(=O)N[C@H]1C(=O)N[C@@H](CC(N)=O)C(=O)N[C@H]2C(=O)N[C@H]3C(=O)N[C@H](C(=O)N[C@H](C(=O)O)c4cc(O)cc(O)c4-c4cc3ccc4O)[C@H](O)c3ccc(c(Cl)c3)Oc3cc2cc(c3O[C@@H]2O[C@H](CO)[C@@H](O)[C@H](O)[C@H]2O[C@H]2C[C@](C)(NCc3ccc(C(=O)OCCCCCCN(Cc4ccccn4)Cc4ccccn4)cc3)[C@H](O)[C@H](C)O2)Oc2ccc(cc2Cl)[C@H]1O		1 h, pH 7.4, 5% suspension		HC50	> 500 µM
